Results of several laboratories.
A part holds a random share of what one study measured. Substitutions count along the parent as printed.

Set 1
Target: Sal-like protein 4, full length isoform A (SALL4, Homo sapiens, UniProt Q9UJQ4, residues 1-1053)
Chain of UniProt Q9UJQ4 (whole entry, looked up): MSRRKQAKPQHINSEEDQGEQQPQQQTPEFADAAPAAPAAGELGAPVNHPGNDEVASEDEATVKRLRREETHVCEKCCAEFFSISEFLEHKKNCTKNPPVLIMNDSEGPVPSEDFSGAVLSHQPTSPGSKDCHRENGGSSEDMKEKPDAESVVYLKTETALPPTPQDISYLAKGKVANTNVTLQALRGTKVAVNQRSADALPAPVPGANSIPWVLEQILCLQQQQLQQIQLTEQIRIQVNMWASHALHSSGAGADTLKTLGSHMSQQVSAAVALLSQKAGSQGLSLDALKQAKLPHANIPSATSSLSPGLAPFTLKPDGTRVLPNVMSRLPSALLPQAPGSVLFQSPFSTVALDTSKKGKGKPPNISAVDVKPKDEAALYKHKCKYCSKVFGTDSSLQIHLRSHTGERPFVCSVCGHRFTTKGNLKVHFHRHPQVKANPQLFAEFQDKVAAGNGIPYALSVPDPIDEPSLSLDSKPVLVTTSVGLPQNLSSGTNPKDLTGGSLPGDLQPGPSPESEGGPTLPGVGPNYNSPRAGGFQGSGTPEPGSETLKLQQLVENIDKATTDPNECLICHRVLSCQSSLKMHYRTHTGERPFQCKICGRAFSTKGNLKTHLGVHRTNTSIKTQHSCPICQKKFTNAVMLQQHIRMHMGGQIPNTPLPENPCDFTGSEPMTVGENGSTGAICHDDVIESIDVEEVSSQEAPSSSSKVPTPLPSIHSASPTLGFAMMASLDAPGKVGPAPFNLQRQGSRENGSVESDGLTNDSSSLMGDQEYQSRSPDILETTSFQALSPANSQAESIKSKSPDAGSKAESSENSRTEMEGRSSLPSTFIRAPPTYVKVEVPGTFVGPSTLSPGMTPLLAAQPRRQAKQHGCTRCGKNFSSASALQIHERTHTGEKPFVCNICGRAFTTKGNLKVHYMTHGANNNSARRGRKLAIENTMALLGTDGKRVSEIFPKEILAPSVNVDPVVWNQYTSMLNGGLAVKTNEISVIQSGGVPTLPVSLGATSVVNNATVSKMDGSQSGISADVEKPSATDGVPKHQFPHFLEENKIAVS
Method: universal PBM
Molecule type: double-stranded DNA, one strand shown
Sample: in vitro
Tested at: 600 nM
Setting: 8-mer, flanks averaged, mean of replicates
Direction: higher = stronger binding
For `GCACGACA`, the E-score was -0.153.
`GCGATGGA` has an E-score of -0.2.
`AGGGGTAG` has an E-score of -0.199.
With `GCATATGC` the E-score was 0.0906.
For `ATCCCTAG`, the E-score was -0.0426.
`ACGCACGA` has an E-score of 0.00886.
`TCTTGTAA` gave an E-score of 0.288.
`ATAAACGG` gave an E-score of 0.25.
With `AGGATCAG` the E-score was -0.174.
The E-score of `CACTGCCA` is reported as -0.065.
With `TAAGTCCA` the E-score was 0.0863.
For `AGCCGTGG`, the E-score was -0.158.
`ATTCTTGG` gave an E-score of 0.102.
`CACAAATG` gave an E-score of 0.139.
With `CGGAGATC` the E-score was -0.259.
`CCAGGAAA` has an E-score of 0.0424.
`CAACACAG` gave an E-score of -0.108.
`ACGTTTGA` gave an E-score of 0.209.
With `AGATCGAC` the E-score was -0.128.
`CTCTAGGA` has an E-score of -0.188.
The E-score of `AAATAAGA` is reported as 0.328.
`CGTGAGAA` has an E-score of -0.0712.
`CGTAGGGA` gave an E-score of -0.0122.
`CGCTTGGA` has an E-score of -0.166.

Set 2
Target: CCNB3, cyclin fold, Cln2 fusion (human)
Method: yeast growth competition, sequencing
Sample: yeast
Setting: weak parent motif
Reference: not given
Direction: higher = stronger binding
Starting sequence: CDKN1A docking peptide (human); SKACRRLFGPVDS; partner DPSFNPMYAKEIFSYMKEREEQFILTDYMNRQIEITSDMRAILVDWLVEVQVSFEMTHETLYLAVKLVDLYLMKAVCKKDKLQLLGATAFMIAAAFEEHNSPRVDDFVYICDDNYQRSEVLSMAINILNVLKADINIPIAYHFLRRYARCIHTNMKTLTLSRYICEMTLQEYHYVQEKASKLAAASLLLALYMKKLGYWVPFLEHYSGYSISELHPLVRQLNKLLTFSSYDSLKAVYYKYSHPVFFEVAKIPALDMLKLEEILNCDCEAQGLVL
`D12W` — result for “normalised enrichment score”: 0.305.
`D12L`: “normalised enrichment score” 0.433.
Under “normalised enrichment score”, `K2A` is recorded as 0.465.
`P10D` — result for “normalised enrichment score”: 0.279.
For `F8Y`, “normalised enrichment score” read -0.0687.
`L7Y`: “normalised enrichment score” 0.287.
`R6L` — result for “normalised enrichment score”: 0.793.
Under “normalised enrichment score”, `R5M` is recorded as 0.233.
`L7D`: “normalised enrichment score” 0.16.
`S1A`: “normalised enrichment score” 0.676.
For `V11W`, “normalised enrichment score” read 0.809.
Under “normalised enrichment score”, `F8A` is recorded as -0.00304.
`F8P`: “normalised enrichment score” 0.0164.
Under “normalised enrichment score”, `V11C` is recorded as 0.493.
Under “normalised enrichment score”, `V11I` is recorded as 0.508.
Under “normalised enrichment score”, `G9Y` is recorded as 0.56.
Under “normalised enrichment score”, `D12S` is recorded as 0.453.
`F8W` — result for “normalised enrichment score”: 0.299.
For `A3Q`, “normalised enrichment score” read 0.281.
Under “normalised enrichment score”, `R5C` is recorded as 0.342.
`R6F` — result for “normalised enrichment score”: 0.433.
Under “normalised enrichment score”, `F8G` is recorded as 0.127.
`C4W` — result for “normalised enrichment score”: 0.715.

Set 3
Target: Interferon regulatory factor 3, full length, phosphomimetic (IRF3, Homo sapiens, UniProt Q14653, residues 1-427, S386D/S396D/S398D/S402D/T404D/S405D)
Method: protein-binding microarray
Molecule type: double-stranded DNA, one strand shown
Sample: in vitro
Tested at: 2540 nM top
Setting: 60-bp whole probe
With: salmon DNA 0.4 mg/ml
Reference: random background probes
Direction: higher = stronger binding
All sequences stand within: GCCTAGCAC … GTCTTGATTCGCTTGACGCTGCTG
Construct (chain): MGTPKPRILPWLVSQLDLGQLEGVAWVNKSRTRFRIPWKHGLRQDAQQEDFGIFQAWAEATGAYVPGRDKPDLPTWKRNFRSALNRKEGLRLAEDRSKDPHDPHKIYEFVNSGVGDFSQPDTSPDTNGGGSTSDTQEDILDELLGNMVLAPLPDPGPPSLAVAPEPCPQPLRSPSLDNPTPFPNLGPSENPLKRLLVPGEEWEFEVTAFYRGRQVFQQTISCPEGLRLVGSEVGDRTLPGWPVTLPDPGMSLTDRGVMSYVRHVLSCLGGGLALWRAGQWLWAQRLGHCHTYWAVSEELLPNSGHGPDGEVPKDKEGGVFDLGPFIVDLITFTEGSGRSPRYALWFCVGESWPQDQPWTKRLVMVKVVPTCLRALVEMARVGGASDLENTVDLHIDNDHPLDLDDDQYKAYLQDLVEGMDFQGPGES
Under “fitted relative affinity”, `GACGGTTTCGACACTGGGGCCGTGCTA` is recorded as 2.83 z-score.
`TCACGTCTGATTTTGCTACTGTGCTAG`: “fitted relative affinity” -0.0354 z-score.
`TCATGCTTGTATCTGGGACTGTGCTAG` — result for “fitted relative affinity”: -0.37 z-score.
Under “fitted relative affinity”, `CAGCATCTGCAACATCTACAAGTGCTA` is recorded as -0.394 z-score.
`TTAGATATCGGGAATCGATTAGTGCTA`: “fitted relative affinity” -0.0548 z-score.
Under “fitted relative affinity”, `GACGGAATGGGTTTCGGGACGTGCTAG` is recorded as 1.69 z-score.
Under “fitted relative affinity”, `TTAGGTTTCGGTCTGGGTTAGTGCTAG` is recorded as 6.91 z-score.
For `GACGGACTGGGACTGGCGACGTGCTAG`, “fitted relative affinity” read -0.965 z-score.
`GGAAGTCCCATGTTGCAGACTGTGCTA`: “fitted relative affinity” 0.111 z-score.
`TCAAGTATGACTCTGCCACTGTGCTAG`: “fitted relative affinity” -0.61 z-score.
Under “fitted relative affinity”, `GTCCTCCTCTCTCTTTCCACGTGCTAG` is recorded as 1.4 z-score.
`TCATTTCTCTGTTCTAGACTGTGCTAG`: “fitted relative affinity” 3.11 z-score.
For `GACAGACTGGGTTTCGGGACGTGCTAG`, “fitted relative affinity” read 1.41 z-score.
`GACGGTATCGGACTGCGGACGTGCTAG` — result for “fitted relative affinity”: 1.61 z-score.
Under “fitted relative affinity”, `TCAGTTATAATATTATTACTGTGCTAG` is recorded as 0.608 z-score.
`GACGATTGCAGTTCCGAGACGTGCTAG`: “fitted relative affinity” 0.949 z-score.
`TTAGATTTCGGGTTTCGATTTGTGCTA` — result for “fitted relative affinity”: 4.15 z-score.
`TGGAACTTAAAAGAAAGATAGTGCTAG`: “fitted relative affinity” -0.0999 z-score.
Under “fitted relative affinity”, `TTAGGACTGGACTATTGGTTAGTGCTA` is recorded as -0.569 z-score.

Set 4
Target: Histone acetyltransferase KAT6A, winged helix 2, GST fusion (KAT6A, Homo sapiens, UniProt Q92794, residues 85-181)
Method: protein binding microarray
Molecule type: double-stranded DNA, one strand shown
Sample: in vitro
Tested at: not given
Setting: 8-mer, flanks averaged, mean of 2 arrays, mostly near background
Reference: not given
Direction: higher = stronger binding
Residues (chain): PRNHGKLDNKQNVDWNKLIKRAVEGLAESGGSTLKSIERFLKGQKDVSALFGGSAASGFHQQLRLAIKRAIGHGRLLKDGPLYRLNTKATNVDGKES
For `GCGATCGC`, the E-score was 0.206.
The E-score of `CACATTAC` is reported as -0.162.
`CCCCAACG` has an E-score of 0.144.
With `GAATTTTA` the E-score was 0.0923.
The E-score of `CAAGGTAG` is reported as -0.0309.
For `TTACATAA`, the E-score was 0.00123.
`AATAGCCC` gave an E-score of -0.147.
`ACTGAGTG` gave an E-score of -0.0523.
The E-score of `GGGTTAGA` is reported as -0.17.
With `ATGTTCAA` the E-score was -0.191.
`GCTCATCA` gave an E-score of 0.0426.
`AGTTCCGC` has an E-score of 0.119.
For `ATAACATA`, the E-score was -0.134.
For `ACCCCTCA`, the E-score was -0.0825.
`CCATATCA` gave an E-score of 0.0299.
For `ACTGAGAT`, the E-score was -0.275.
`AGAATTCA` has an E-score of -0.0556.

Set 5
Target: ABI1, truncated, D143A, DHFR fusion (Arabidopsis thaliana)
Method: DHFR PCA, deep sequencing
Sample: yeast
Setting: methotrexate growth selection, single substitutions
With: (+)-ABA 1.4 µM
Reference: wild-type fitted maximum
Direction: higher = stronger binding
Starting sequence: PYL1, truncated, DHFR fusion (Arabidopsis thaliana); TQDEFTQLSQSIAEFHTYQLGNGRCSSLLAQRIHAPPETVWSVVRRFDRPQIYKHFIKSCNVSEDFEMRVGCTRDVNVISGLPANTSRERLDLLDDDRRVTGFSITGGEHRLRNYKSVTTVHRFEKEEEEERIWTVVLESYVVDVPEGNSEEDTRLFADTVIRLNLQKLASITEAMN; partner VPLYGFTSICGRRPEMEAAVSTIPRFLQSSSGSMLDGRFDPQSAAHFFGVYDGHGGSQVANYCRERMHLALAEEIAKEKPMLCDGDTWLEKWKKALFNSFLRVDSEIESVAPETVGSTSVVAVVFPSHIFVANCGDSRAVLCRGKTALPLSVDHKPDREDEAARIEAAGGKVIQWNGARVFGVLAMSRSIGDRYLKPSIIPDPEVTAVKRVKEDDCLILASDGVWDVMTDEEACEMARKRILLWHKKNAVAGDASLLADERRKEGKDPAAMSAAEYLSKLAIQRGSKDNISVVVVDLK
Under “relative binding score”, `S11R` is recorded as 30%.
For `G108V`, “relative binding score” read -1.97%.
`F124K` — result for “relative binding score”: 2.76%.
Under “relative binding score”, `Q10R` is recorded as 59.5%.
Under “relative binding score”, `S104Y` is recorded as -9.7%.
`R113W`: “relative binding score” 6.03%.
`V145E`: “relative binding score” -13.4%.
`F157R` — result for “relative binding score”: 15.6%.
`C25M` — result for “relative binding score”: 7.31%.
`Q2H` — result for “relative binding score”: 65.1%.
`P50L` — result for “relative binding score”: -7.58%.
For `E109H`, “relative binding score” read 16.6%.
Under “relative binding score”, `A170T` is recorded as 14.6%.
`L8V` — result for “relative binding score”: 19.4%.
`S140E` — result for “relative binding score”: 7.81%.
For `A30S`, “relative binding score” read 66.5%.
For `N61G`, “relative binding score” read 22.3%.

Further values, each from its own experiment
The fold induction of `PhoQ, residues 284 288 289 292 302 303 AGCYAI` is reported as 1.55 (PhoP, residues 12 14 15 18 19 QYCSL (Escherichia coli, UniProt P23836); Sort-seq, item: YFP reporter; E. coli; PhoQ-PhoP variant library, with: 10 µM Mg2+; reference: high Mg2+ state, higher = stronger signaling).

A few entries again (set 5):
`L8V` — result for “relative binding score”: 19.4%.
Under “relative binding score”, `Q10R` is recorded as 59.5%.
`F124K` — result for “relative binding score”: 2.76%.
Under “relative binding score”, `S11R` is recorded as 30%.
`V145E`: “relative binding score” -13.4%.
`R113W`: “relative binding score” 6.03%.
`F157R` — result for “relative binding score”: 15.6%.
For `E109H`, “relative binding score” read 16.6%.
For `N61G`, “relative binding score” read 22.3%.
`Q2H` — result for “relative binding score”: 65.1%.
For `G108V`, “relative binding score” read -1.97%.
`C25M` — result for “relative binding score”: 7.31%.
`S140E` — result for “relative binding score”: 7.81%.
